Results from different studies.
Each numbered part is a random draw from the data of one study; scales do not carry over between parts. Substitutions count along the parent as printed.

Study 1
Target: ABI1, truncated, D143A, DHFR fusion (Arabidopsis thaliana)
Technique: DHFR PCA, deep sequencing
Medium: yeast
Notes: methotrexate growth selection, single substitutions
Added: (+)-ABA 17 µM
Reference: wild-type fitted maximum
Reading: higher = stronger binding
Starting sequence: PYL1, truncated, DHFR fusion (Arabidopsis thaliana); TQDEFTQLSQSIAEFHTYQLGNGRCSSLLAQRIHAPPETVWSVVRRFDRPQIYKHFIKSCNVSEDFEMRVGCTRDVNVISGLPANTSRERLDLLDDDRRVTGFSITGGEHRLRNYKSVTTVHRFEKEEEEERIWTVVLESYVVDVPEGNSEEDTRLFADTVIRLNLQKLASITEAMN; partner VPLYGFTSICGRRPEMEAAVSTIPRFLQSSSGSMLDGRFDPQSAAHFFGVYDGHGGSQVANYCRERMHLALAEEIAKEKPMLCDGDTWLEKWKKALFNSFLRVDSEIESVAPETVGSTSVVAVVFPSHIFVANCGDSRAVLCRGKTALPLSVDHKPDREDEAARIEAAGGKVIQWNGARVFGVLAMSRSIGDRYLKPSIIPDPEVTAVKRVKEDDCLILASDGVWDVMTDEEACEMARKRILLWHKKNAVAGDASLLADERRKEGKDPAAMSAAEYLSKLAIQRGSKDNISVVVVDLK
| Substitution | relative binding score |
| --- | --- |
| G81V | 5.18% |
| K126V | 92.2% |
| I105P | 3.88% |
| S27D | 69.9% |
| S104A | 29.8% |
| I133Y | 96.3% |
| F15D | 5.51% |
| R45I | -9.75% |
| G81E | 3.87% |
| D92W | 15.8% |
| E89I | -0.522% |
| D92T | 50.3% |
| F157G | -4.92% |
| H34T | 62.2% |
| K54F | -14% |
| R49G | 27.3% |
| R88E | 78% |
| P36L | 67.2% |
| W134V | 94.3% |
| Y18K | 69.3% |
| E67N | 80.6% |

Study 2
Target: Sal-like protein 4, full length isoform A (SALL4, Homo sapiens, UniProt Q9UJQ4, residues 1-1053)
Chain of UniProt Q9UJQ4 (whole entry, looked up): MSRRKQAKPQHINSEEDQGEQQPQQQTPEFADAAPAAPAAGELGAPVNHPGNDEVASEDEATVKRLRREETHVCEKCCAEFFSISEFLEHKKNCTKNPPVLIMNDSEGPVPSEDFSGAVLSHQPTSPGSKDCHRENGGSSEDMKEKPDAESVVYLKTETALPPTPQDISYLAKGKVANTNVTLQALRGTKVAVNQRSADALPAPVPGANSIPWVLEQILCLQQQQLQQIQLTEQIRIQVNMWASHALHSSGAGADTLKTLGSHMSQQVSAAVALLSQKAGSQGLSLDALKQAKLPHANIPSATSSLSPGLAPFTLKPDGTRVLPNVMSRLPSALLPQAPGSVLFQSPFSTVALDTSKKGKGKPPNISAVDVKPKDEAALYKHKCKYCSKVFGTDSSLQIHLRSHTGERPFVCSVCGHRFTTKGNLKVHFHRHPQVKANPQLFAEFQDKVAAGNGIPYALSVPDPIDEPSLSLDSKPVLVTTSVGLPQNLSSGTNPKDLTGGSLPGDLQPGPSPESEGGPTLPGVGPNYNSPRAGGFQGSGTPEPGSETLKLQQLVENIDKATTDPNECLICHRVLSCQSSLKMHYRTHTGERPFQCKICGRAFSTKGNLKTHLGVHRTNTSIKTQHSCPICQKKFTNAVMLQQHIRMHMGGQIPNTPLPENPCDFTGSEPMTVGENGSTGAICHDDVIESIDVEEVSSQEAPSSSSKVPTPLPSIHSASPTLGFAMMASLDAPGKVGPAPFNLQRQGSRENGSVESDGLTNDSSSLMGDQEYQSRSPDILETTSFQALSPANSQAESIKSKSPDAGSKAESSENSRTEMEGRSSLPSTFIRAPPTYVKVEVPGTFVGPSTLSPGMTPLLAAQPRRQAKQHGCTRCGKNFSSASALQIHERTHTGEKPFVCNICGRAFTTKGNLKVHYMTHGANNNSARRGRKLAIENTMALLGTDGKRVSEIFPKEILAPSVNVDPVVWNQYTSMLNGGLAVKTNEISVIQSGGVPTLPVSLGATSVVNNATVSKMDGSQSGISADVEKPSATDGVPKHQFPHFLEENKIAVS
Technique: universal PBM
Molecule type: double-stranded DNA, one strand shown
Medium: in vitro
Concentration: 600 nM
Notes: 8-mer, flanks averaged, mean of replicates
Reading: higher = stronger binding
| Sequence | E-score |
| --- | --- |
| GATCGAGC | -0.0822 |
| GACGGTAC | 0.0264 |
| ATCTACTC | 0.12 |
| GGTGCCCA | -0.311 |
| CTAAACGC | -0.0629 |
| ACCCAGCG | -0.378 |
| GGCGAGTA | -0.183 |
| ACGCTCCC | -0.174 |
| ATCCCAAC | -0.07 |
| CACTGTGC | -0.126 |
| ATCGATGA | 0.128 |
| GCTCCTAA | -0.174 |
| ATCTTCAC | 0.145 |
| ACTCGGGA | -0.133 |
| CTGTATAC | 0.223 |
| CAATAAGG | 0.0488 |
| GACATCTA | 0.17 |
| ACGTATCA | 0.129 |
| TAGCGAAA | 0.196 |
| CGCGCATA | 0.0153 |
| AAACGGGG | -0.197 |
| ATCGGCAA | -0.0552 |
| CCCATGAG | -0.138 |
| GAAGTACA | 0.068 |
| AAAGTCGG | -0.0524 |

Study 3
Target: Ras GTPase-activating protein-binding protein 1, full length (G3BP1, Homo sapiens, UniProt Q13283)
Chain of UniProt Q13283 (whole entry, looked up): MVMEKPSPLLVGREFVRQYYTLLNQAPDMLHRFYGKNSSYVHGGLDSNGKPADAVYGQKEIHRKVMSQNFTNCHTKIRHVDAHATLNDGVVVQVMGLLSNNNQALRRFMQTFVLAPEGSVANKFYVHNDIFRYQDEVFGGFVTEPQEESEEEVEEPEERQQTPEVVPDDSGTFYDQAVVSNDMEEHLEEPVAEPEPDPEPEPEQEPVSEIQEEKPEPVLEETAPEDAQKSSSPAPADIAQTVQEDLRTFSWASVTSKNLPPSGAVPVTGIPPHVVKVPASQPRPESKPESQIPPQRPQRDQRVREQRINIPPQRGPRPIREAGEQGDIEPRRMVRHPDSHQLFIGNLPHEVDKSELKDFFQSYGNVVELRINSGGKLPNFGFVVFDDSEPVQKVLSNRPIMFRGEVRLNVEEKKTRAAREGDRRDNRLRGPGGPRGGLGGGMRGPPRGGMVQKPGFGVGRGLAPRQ
Technique: RNA Bind-n-Seq
Molecule type: RNA
Medium: in vitro
Concentration: 200 nM
Notes: whole 134-nt RNA, ends assumed
Added: 150 mM LiCl
Reference: input library
Reading: higher = stronger binding
All molecules: 7-deaza-guanosine replaces G
All sequences stand within: GGGAGUUCUACAGUCCGACGAUC … UGGAAUUCUCGGGUGUCAAGG
| Sequence | log2 enrichment |
| --- | --- |
| CAAGUCCUGUGCUACACAUCGUAUGUACCGAAUCGGUUUGGUUUUUGGUUUUUGGAAAGUAUUAUGUUACGCCGUUCGGAUCUGCACUUC | -0.715 |
| CACAGACAACACGCACCCACACAGACACAGAGGGAAGGGGUUGGGAUGGGGACAGGGUGCACAGCAGGGCGGGGUAGAACCCCAGCCCCU | -0.571 |
| UGUGCUACACAUCGUAUGUACCGAAUCGGGGCCCCCCCGGGGCCCCCCCGGGCCCCCCCGGGAAAGUAUUAUGUUACGCCGUUCGGAUCU | -0.434 |
| GGAGGAAGUAAAAACAAAUGGAAAUGCUUCGGAUAGUGGCAGGGGUGGGGGUUGCUAAGGAAAGGGUGGGAUGGGAGUGGGUAAAGAGUU | -0.0753 |
| GCAGGAAGUAAAAACAAAUGGAAAUGCUUCGGAUAGUGGCAGGGGUGGGGGUUGCUAAGGAAAGGGUGGGAUGGGAGUGCGUAAAGAGUU | 0.214 |
| CAAGUCCUGUGCUACACAUCGUAUGUACCGAAUCGGGGAAAGGGGUGGGGAGGGGAAAGUAUUAUGUUACGCCGUUCGGAUCUGCACUUC | 0.143 |
| CCUCAAGUCCUGUGCUACACAUCGUAUGUACCGAAUCGGCGGCGGGGCGGGGAAAGUAUUAUGUUACGCCGUUCGGAUCUGCACUUCCAG | -0.0802 |
| UGGGAGGUGGAUUUUGUUUAUUUUUUUAGCUCAUUUCCAGGGGUAGGAAUUUUUUUUUAAUAUGUGUCAUGAAUAAAGUUGUUUUUGAAA | -0.948 |
| GCAGGAAGUAAAAACAAAUCGAAAUGCUUCGGAUAGUGGCAGGGGUGGGGGUUGCUAAGGAAAGGGUGGGAUGGGAGUGGGUAAAGAGUU | 0.275 |
| ACCAUGCAGGUGGGCAUCUUUGAGAAGUGGGGCAAGGGGGGGAUAGGGAGGGGGGUAACACUUUGGGAACAGGUGGUCCCAGGUCGUUUC | 0.266 |
| UGGGAGGUGGAUUUUGUUUAAUUUUUUAGCUCAUUUCCAGGGGUGGGAAUUUUUUUUUAAUAUGUGUCAUGAAUAAAGUUGUUUUUGAAA | -0.258 |

Study 4
Target: Histone acetyltransferase KAT6A, winged helix 2, GST fusion (KAT6A, Homo sapiens, UniProt Q92794, residues 85-181)
Technique: protein binding microarray
Molecule type: double-stranded DNA, one strand shown
Medium: in vitro
Concentration: not given
Notes: 8-mer, flanks averaged, mean of 2 arrays, mostly near background
Reference: not given
Reading: higher = stronger binding
Construct (chain): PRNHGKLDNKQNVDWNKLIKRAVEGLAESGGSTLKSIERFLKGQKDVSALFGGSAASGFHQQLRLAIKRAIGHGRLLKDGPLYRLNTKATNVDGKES
| Sequence | E-score |
| --- | --- |
| AAAACAGA | 0.011 |
| AGGATCGC | -0.169 |
| CAAAGACA | 0.182 |
| GTGACGGA | -0.125 |
| GCTTAGTA | -0.00469 |
| CTCCATCA | 0.144 |
| TCCCCCGA | 0.124 |
| TCGGCCGA | 0.12 |
| GTCGCCAA | 0.11 |
| ACTGCTGA | -0.0226 |
| ACGGGCAC | 0.163 |
| AAGTACCC | -0.15 |
| ACAGGTGA | -0.028 |
| TTCAAAAA | 0.0971 |
| AGTTCGGG | 0.174 |
| CACAATTC | 0.0437 |
| CTATTTTC | 0.0518 |
| GGCGAACA | 0.185 |

Study 5
Target: CCNF, cyclin fold, Cln2 fusion (human)
Technique: yeast growth competition, sequencing
Medium: yeast
Notes: strong parent motif
Reference: not given
Reading: higher = stronger binding
Starting sequence: SAMHD1 docking peptide (human); ASKSRVQLFKDDP
| Substitution | normalised enrichment score |
| --- | --- |
| ASKSRVQLFKRDP [D11R] | 1.01 |
| ASKSRVRLFKDDP [Q7R] | 1.62 |
| ASKSRVQLYKDDP [F9Y] | 0.213 |
| ASKSRVQLFCDDP [K10C] | 0.911 |
| ASKSNVQLFKDDP [R5N] | -0.166 |
| ASKSRVLLFKDDP [Q7L] | 0.784 |
| ASWSRVQLFKDDP [K3W] | 1.28 |
| ASKSRVILFKDDP [Q7I] | -0.248 |
| ASKSRVQLFIDDP [K10I] | 0.804 |
| AWKSRVQLFKDDP [S2W] | 2.95 |
| ASKSRDQLFKDDP [V6D] | -0.441 |
| ASKSRVQLFFDDP [K10F] | 1.21 |
| ASKSRVQLFKPDP [D11P] | 0.902 |
| ASKFRVQLFKDDP [S4F] | 3.06 |
| ASKSRVQLFADDP [K10A] | 0.831 |
| ASKSRVQLFKTDP [D11T] | 0.812 |
| ASKSRVGLFKDDP [Q7G] | 0.493 |
| ASKERVQLFKDDP [S4E] | -0.0608 |
| ASKSQVQLFKDDP [R5Q] | 0.877 |
| ASKSRVQLMKDDP [F9M] | 0.146 |
| ASKSRVQLFKDSP [D12S] | 0.758 |
| AFKSRVQLFKDDP [S2F] | 2.45 |
| ASASRVQLFKDDP [K3A] | 1.38 |
| ASKSRGQLFKDDP [V6G] | 0.193 |
| ASKSRVNLFKDDP [Q7N] | 0.336 |

A few entries again (study 1):
| Substitution | relative binding score |
| --- | --- |
| R49G | 27.3% |
| R88E | 78% |
| P36L | 67.2% |
| W134V | 94.3% |
| Y18K | 69.3% |
| E67N | 80.6% |
